# Values quoted from earlier work, collected from citations in different studies.
# Each numbered part shows a few of the values that one paper quotes. ± marks the error that the study gave.

# Sample 1
# Organism: SARS-CoV-2
# Read-out: viral cytopathic effect
# Cells: Vero E6
# Tested at: 20 µM
Structure (SMILES),inhibition
O=C(O[C@@H]1Cc2c(O)cc(O)cc2O[C@@H]1c1cc(O)c(O)c(O)c1)c1cc(O)c(O)c(O)c1,0.29%
CCOc1ccc2nc3cc(N)ccc3c(N)c2c1,-0.13%
Cc1c(Cl)c(C)[n+]([O-])c(Cl)c1-c1noc(-c2cc(O)c(O)c([N+](=O)[O-])c2)n1,0.51%

# Sample 2
# Organism: SARS-CoV-2
# Read-out: cytopathic effect
# Cells: Caco-2
# Tested at: 10 µM
Compound,inhibition
O=[N+]([O-])c1ccc(O)c2ncccc12,3.8%
C/C=C1/[C@H](O[C@@H]2O[C@H](CO)[C@@H](O)[C@H](O)[C@H]2O)OC=C(C(=O)OC)[C@H]1CC(=O)OCCc1ccc(O)c(O)c1,-0.5%
O=C(O)c1cc(O)c2c(c1)[C@H]([C@H]1c3cc(C(=O)O)cc(O)c3C(=O)c3c(O[C@@H]4O[C@H](CO)[C@@H](O)[C@H](O)[C@H]4O)cccc31)c1cccc(O[C@@H]3O[C@H](CO)[C@@H](O)[C@H](O)[C@H]3O)c1C2=O,-10.6%
O=[N+]([O-])C(Br)(CO)CO,-9.8%
O=C1C(Cl)=C(N2CCOCC2)C(=O)N1c1ccc(Cl)c(Cl)c1,-14.6%
C[C@@H]1O[C@@H](O[C@@H]2[C@@H](O)[C@H](OCCc3ccc(O)c(O)c3)O[C@H](CO)[C@H]2OC(=O)/C=C/c2ccc(O)c(O)c2)[C@H](O)[C@H](O)[C@H]1O,-2.1%
NC(CO)C(=O)NNCc1ccc(O)c(O)c1O (stereo not drawn),-1.4%
CN(C)CCNc1nc2cc(O)ccc2c2c1C(=O)c1ccccc1-2,92.6%
CCn1c(-c2nonc2N)nc2cncc(CNC3CCNCC3)c21,2.3%
CN1CC[C@@]2(C)c3cc(O)ccc3N(C)[C@@H]12,-3.8%
Oc1ccc2ccccc2c1SSc1c(O)ccc2ccccc12,5.2%
C[C@@H]1O[C@@H](Oc2c(-c3cc(O)c(O)c(O)c3)oc3cc(O)cc(O)c3c2=O)[C@@H](O)[C@H](O)[C@H]1O,-11.4%
CC(C)C[C@@H](C=O)NC(=O)[C@H](CC(C)C)NC(=O)[C@H](CC(C)C)NC(=O)OCc1ccccc1,-11.4%
O=C(O)[C@@H](S)[C@@H](S)C(=O)O,30.1%
Oc1cccc(-c2c3nc(c(-c4cccc(O)c4)c4ccc([nH]4)c(-c4cccc(O)c4)c4nc(c(-c5cccc(O)c5)c5ccc2[nH]5)CC4)C=C3)c1,85.9%

# Further values, each from its own experiment
SMILES,tested on,test,system,setting,endpoint,result
COc1cc2c(c(OC)n1)[C@]1(O)[C@H](O)[C@H](CN(C)C)[C@@H](c3ccccc3)[C@]1(c1ccc(C#N)cc1)O2,SARS-CoV-2,,,,EC90,37 nM
N[C@@H](CC(=O)N1CCn2c(nnc2C(F)(F)F)C1)Cc1cc(F)c(F)cc1F,"Replicase polyprotein 1ab, papain-like protease (rep, Severe acute respiratory syndrome coronavirus 2, UniProt P0DTD1)","PLpro activity, inhibitor, cell-based ER membrane-anchored reporter translocation",,,IC50,~10000 nM
O=C(O)c1cc(O)c2ccc(Cl)cc2n1,strychnine-insensitive glycine site,[3H]glycine binding,,,IC50,560 nM
Nc1nc2nc[nH]c2c(=S)[nH]1,SARS-CoV-2,viral replication,Calu-3,,IC50,550 nM
COc1ccc([C@H]2c3[nH]c4ccc(Cl)cc4c3CCN2C(=O)Oc2ccc(Cl)cc2)cc1,SARS-CoV-2,"viral replication, refers to: viral titre",,cell culture,EC50,2.6 nM
CC(CN1c2ccccc2Sc2ccccc21)N(C)C (stereo not drawn),Marburg virus,"pseudovirus entry, HIV pseudotype luciferase reporter",A549,,IC50,19100 nM
O=C(NCc1c(F)cc(F)cc1F)c1cn2c(c(O)c1=O)C(=O)N1[C@H]3CC[C@H](C3)O[C@@H]1C2,HIV-1,"viral replication, single-round vector infection",IN R263K,,EC50,4.8 ± 0.8 nM
O=C[C@H](C[C@@H]1CCNC1=O)NC(=O)[C@H](Cc1cccc(F)c1)NC(=O)c1cc2ccccc2[nH]1,"Replicase polyprotein 1ab, main protease (rep, Severe acute respiratory syndrome coronavirus 2, UniProt P0DTD1)",inhibitor,,,IC50,40 ± 2 nM
CC(C)(C)c1cc(C(=O)/C(C#N)=N/Nc2cccc(Cl)c2)no1,EPAC2 (full-length),"GEF activity, inhibitor",,added: cAMP 20 µM,IC50,4400 nM
CCC(C(=O)Nc1sc(C(N)=O)c(C)c1C(=O)OC)c1ccccc1 (stereo not drawn),vaccinia virus,viral propagation,,,EC50,19700 nM
C[C@@H]1CCO[C@H]2Cn3cc(C(=O)NCc4ccc(F)cc4F)c(=O)c(O)c3C(=O)N12,HIV-1,"viral replication, single-round vector infection",IN G118R,,EC50,18.4 ± 1.5 nM
CC(CN(C)C)CN1c2ccccc2CCc2ccccc21 (stereo not drawn),Ebola virus,"pseudovirus entry, HIV pseudotype reporter",A549,,IC50,11100 nM

# A few entries again (further values, each from its own experiment):
SMILES,tested on,test,system,setting,endpoint,result
CC(C)(C)c1cc(C(=O)/C(C#N)=N/Nc2cccc(Cl)c2)no1,EPAC2 (full-length),"GEF activity, inhibitor",,added: cAMP 20 µM,IC50,4400 nM
COc1cc2c(c(OC)n1)[C@]1(O)[C@H](O)[C@H](CN(C)C)[C@@H](c3ccccc3)[C@]1(c1ccc(C#N)cc1)O2,SARS-CoV-2,,,,EC90,37 nM
C[C@@H]1CCO[C@H]2Cn3cc(C(=O)NCc4ccc(F)cc4F)c(=O)c(O)c3C(=O)N12,HIV-1,"viral replication, single-round vector infection",IN G118R,,EC50,18.4 ± 1.5 nM
CCC(C(=O)Nc1sc(C(N)=O)c(C)c1C(=O)OC)c1ccccc1 (stereo not drawn),vaccinia virus,viral propagation,,,EC50,19700 nM
O=C(O)c1cc(O)c2ccc(Cl)cc2n1,strychnine-insensitive glycine site,[3H]glycine binding,,,IC50,560 nM
